Experimental data collected from several papers.
Compare with care: the assays were run in different laboratories. ± marks the error that the study gave.

CN(C)C(=O)c1cc2cnc(Nc3ccc(N4CCNCC4)cn3)nc2n1C1CCCC1 — Tmax (patients, plasma; oral, steady state, median, together with: letrozole): 3.62 h
C[C@H]1[C@H]2N(C(=O)CN(C)N2C(=O)NCc2ccccc2)[C@@H](Cc2ccc(OP(=O)(O)O)cc2)C(=O)N1Cc1cccc2cccnc12 — Tmax (patients, plasma; intravenous infusion, 280 mg/m2 over 4 h, median): 1 h
Cc1ccc(NC(=O)c2ccc(CN3CCN(C)CC3)cc2)cc1Nc1nccc(-c2cncc(-c3oncc3C)c2)n1 — Tmax (Parkinson's disease patients, plasma; oral, 50 mg/day, 7 days, steady state): 3.6 ± 1.4 h
O=C(c1cccnc1-c1ccncc1)N1CCC(O)(Cc2ccccc2)CC1 — Tmax (healthy Japanese adults, plasma; oral, 200 mg single dose): 0.75 h
N#Cc1cccc(-c2ccc3ncc(-c4cc(F)cc(F)c4)c(N4CCC(N)CC4)c3c2)c1O — Tmax (healthy male, plasma total radioactivity; oral, 20 mg, median): 1 h
C=CC(=O)NC1CCN(c2ncc3ncnc(Nc4ccc(Oc5ccc6c(c5)ncn6C)c(C)c4)c3n2)CC1 — Tmax (healthy men; oral, 60 mg single dose, together with: carbamazepine): 1.5 h
CO[C@H]1CC[C@H](N2C(=O)CNc3ncc(-c4ccc(C(C)(C)O)nc4)nc32)CC1 — Tmax (patients, plasma; oral, 60 mg, day -1, median): 1.5 h
CCCCC[C@H](O)CC[C@@H]1[C@H]2Cc3cccc(OCC(=O)O)c3C[C@H]2C[C@H]1O — Tmax (LC-MS/MS; Japanese PAH patients, plasma; inhaled, 54 µg, age under 50 years, mean): 0.26 h
CS(=O)(=O)c1ccc([C@@H](O)[C@@H](CF)NC(=O)C(Cl)Cl)cc1 — Tmax (Arbor Acres chickens, plasma; oral, 20 mg/kg, together with: quercetin 60 mg/kg pretreatment): 0.8 ± 0.11 h
CCCCOCCOc1ccc(-c2ccc3c(c2)/C=C(/C(=O)Nc2ccc([S@@+]([O-])Cc4cncn4CCC)cc2)CCCN3CC(C)C)cc1 — Tmax (mild hepatic impairment patients, plasma; oral, 150 mg, day 1, single dose, geometric mean): 5.9 h
CCCCC1=NC2(CCCC2)C(=O)N1Cc1ccc(-c2ccccc2S(=O)(=O)Nc2noc(C)c2C)c(COCC)c1 — Tmax (healthy adult volunteers, plasma; oral, 50 mg, 14 days repeated dosing, fasted, crushed tablet): 2.02 h
CC(C)(C)c1cc(C(C)(C)C)c(NC(=O)c2c[nH]c3ccccc3c2=O)cc1O — Tmax (human, plasma; oral, standard ETI dose): 3 h
C[C@@](Cc1ccc(O)c(O)c1)(NN)C(=O)O — Tmax (Parkinson's disease patients, plasma; oral, low levodopa AUC subgroup (11.5 µmol·h/L), median): 2 h
CNC(=O)c1ccc(-c2cnc3ncc(Cc4ccc5ncccc5c4)n3n2)cc1F — Tmax (Japanese patients, plasma; oral, 400 mg twice daily, cycle 1 day 1, fasting): 1.93 h
C[C@H]1CN(C(=O)CC#N)[C@]12CCN(c1ncnc3[nH]ccc13)C2 — Tmax (healthy Japanese males, plasma; oral, 5 mg single dose): 1 h
C=C(F)C(=O)N1CCN(c2nc(OC[C@@H]3CCCN3C)nc3c2CCN(c2cccc4cccc(Cl)c24)C3)C[C@@H]1CC#N — Tmax (healthy volunteers, plasma; 600 mg): 7 h
CCCCCCCCCCCCCCCC(=O)N[C@@H](CCC(=O)NCCCC[C@@H]1NC(=O)[C@H]([C@@H](C)CC)NC(=O)[C@@H](NC(=O)[C@@H]2CCCN2C(=O)[C@H](Cc2ccccc2)NC(=O)[C@H](Cc2c[nH]cn2)NC(=O)[C@@H](NC(=O)[C@H](CC(=O)O)NC(=O)CC(C)C)[C@@H](C)O)CSSC[C@@H](C(=O)N[C@@H](CCCCN)C(N)=O)NC(=O)CNC(=O)[C@H](CCCCN)NC(=O)[C@H](CO)NC(=O)[C@H](CCCNC(=N)N)NC(=O)[C@@H]2CCCN2C(=O)[C@H](CCC(=O)O)NC(=O)[C@H](Cc2ccccc2)NC1=O)C(=O)O — Tmax (healthy volunteers, plasma; subcutaneous, 30 mg single, lyophilised formulation, median): 24 h
CC#Cc1cncc(-c2ccc3c(c2)[C@@]2(N=C(C)C(N)=N2)[C@]2(CC[C@H](OC)CC2)C3)c1 — Tmax (Dunkin-Hartley guinea pigs, male, CSF; oral, single dose NG): 2 h
O=C(O)c1cc(O)c(O)c(O)c1 — Tmax (LC-MS/MS; male Ross broilers, serum; oral, 0.49 mg/kg BW): 1 ± 0.92 h
CN(CCC(=O)O)C(=O)c1ccc2c(c1)CC[C@@H]1[C@@H]2CC[C@]2(C)C(c3cncc(F)c3)=CC[C@@H]12 — Tmax (postmenopausal women, plasma; 3 mg once daily multiple dose, day 14, median): 1.5 h
OC[C@H]1O[C@@H](c2cc(Cc3ccc(C4CC4)cc3)c(Cl)c3c2CCO3)[C@H](O)[C@@H](O)[C@@H]1O — Tmax (healthy Korean adults, fasted, plasma; oral, 0.3 mg single dose, fixed-dose combination, median, together with: co-administered drug 50 mg): 1.25 h
CCNC(=O)[C@@H]1CCCN1C(=O)[C@H](CCCNC(=N)N)NC(=O)[C@H](CC(C)C)NC(=O)[C@@H](CC(C)C)NC(=O)[C@H](Cc1ccc(O)cc1)NC(=O)[C@H](CO)NC(=O)[C@H](Cc1c[nH]c2ccccc12)NC(=O)[C@H](Cc1c[nH]cn1)NC(=O)[C@@H]1CCC(=O)N1 — Tmax (healthy female volunteers; oral, 1 mg single dose, enteric-coated permeation-enhanced formulation): 2.24 ± 0.38 h
COc1ccc([C@@H](O)c2cc(-c3ncnc4cc(N5CCOCC5)ccc34)c(F)cc2Cl)nn1 — Tmax (median; healthy volunteers, plasma; oral, 100 mg, fasted tablet): 1 h
CC(=O)Nc1ccc(C[C@H](NC(=O)[C@H](CO)NC(=O)[C@@H](Cc2cccnc2)NC(=O)[C@@H](Cc2ccc(Cl)cc2)NC(=O)[C@@H](Cc2ccc3ccccc3c2)NC(C)=O)C(=O)N[C@H](Cc2ccc(NC(C)=O)cc2)C(=O)N[C@@H](CC(C)C)C(=O)N[C@@H](CCCCNC(C)C)C(=O)N2CCC[C@H]2C(=O)N[C@H](C)C(N)=O)cc1 — Tmax (healthy men, fasted, serum; oral, 10 mg single dose): 1.6 ± 0.7 h
CC(F)(F)c1nc2nc(CO)cc(Nc3ccc(S(F)(F)(F)(F)F)cc3)n2n1 — Tmax (LC-MS/MS, non-compartmental; malaria patients; 400 mg of parent drug, median): 113 h
CN[C@H](CC(C)C)C(=O)N[C@H]1C(=O)N[C@@H](CC(N)=O)C(=O)N[C@H]2C(=O)N[C@H]3C(=O)N[C@H](C(=O)N[C@H](C(=O)O)c4cc(O)cc(O)c4-c4cc3ccc4O)[C@H](O)c3ccc(c(Cl)c3)Oc3cc2cc(c3O[C@@H]2O[C@H](CO)[C@@H](O)[C@H](O)[C@H]2O[C@H]2C[C@](C)(N)[C@H](O)[C@H](C)O2)Oc2ccc(cc2Cl)[C@H]1O — Tmax (guinea pig, tissue cage fluid; local, 10 mg/mL, poloxamer 407 hydrogel): 0 h
CCc1nc2c(C)cc(N3CCN(CC(=O)N4CC(O)C4)CC3)cn2c1N(C)c1nc(-c2ccc(F)cc2)c(C#N)s1 — Tmax (healthy volunteers, fed, plasma; oral, 300 mg single dose, day 1, capsule): 2 h
Oc1ccc([C@@H](O)c2cc(-c3ncnc4cc(N5CCOCC5)ccc34)c(F)cc2Cl)nn1 — Tmax (median; healthy volunteers, plasma; oral, 100 mg, fasted oral suspension): 0.5 h
COc1nnc2ccc(N3CCC(c4ccc(OCCN5CCN(C)C(=O)[C@H]5C)cc4)CC3)nn12 — Tmax (patients, plasma; oral, 15 mg twice daily, single dose, monotherapy, median): 1 h
CCc1nc(C(N)=O)c(Nc2ccc(N3CCC(N4CCN(C)CC4)CC3)c(OC)c2)nc1NC1CCOCC1 — Tmax (Japanese patients, plasma; oral, 200 mg, cycle 1 day 28, multiple doses, median): 6 h
